Published values from different studies.
Every numbered part comes from another study and shows a few of its results, in no order. Changes are numbered by the printed parent chain.

Series 1
Target: CEBPB, bZIP domain (human)
Method: DHFR protein complementation
Matrix: yeast
Notes: single substitutions, most at no-binding floor
Baseline: wild-type JUN-FOS pair
Reading: higher = stronger binding
Starting sequence: JUN, bZIP domain (human); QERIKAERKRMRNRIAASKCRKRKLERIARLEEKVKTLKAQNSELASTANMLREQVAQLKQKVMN; partner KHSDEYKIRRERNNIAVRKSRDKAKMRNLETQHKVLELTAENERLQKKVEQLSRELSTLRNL
The binding fitness of `R30A` is reported as -0.901 natural log.
`A29D` has a binding fitness of -1.25 natural log.
`V35R` has a binding fitness of -1.44 natural log.
`N42P` gave a binding fitness of -1.37 natural log.
For `S43N`, the binding fitness was -1.35 natural log.
`E54A` gave a binding fitness of -1.26 natural log.
`Q41I` gave a binding fitness of -1.29 natural log.
The binding fitness of `E32L` is reported as -1.42 natural log.

Series 2
Target: Interferon regulatory factor 3, full length, phosphomimetic (IRF3, Homo sapiens, UniProt Q14653, residues 1-427, S386D/S396D/S398D/S402D/T404D/S405D)
Method: protein-binding microarray
Form: double-stranded DNA, one strand shown
Matrix: in vitro
Concentration: 2540 nM top
Notes: 60-bp whole probe
Added: salmon DNA 0.4 mg/ml
Baseline: random background probes
Reading: higher = stronger binding
Constant ends, left off below: GCCTAGCAC … GTCTTGATTCGCTTGACGCTGCTG
Target sequence (chain): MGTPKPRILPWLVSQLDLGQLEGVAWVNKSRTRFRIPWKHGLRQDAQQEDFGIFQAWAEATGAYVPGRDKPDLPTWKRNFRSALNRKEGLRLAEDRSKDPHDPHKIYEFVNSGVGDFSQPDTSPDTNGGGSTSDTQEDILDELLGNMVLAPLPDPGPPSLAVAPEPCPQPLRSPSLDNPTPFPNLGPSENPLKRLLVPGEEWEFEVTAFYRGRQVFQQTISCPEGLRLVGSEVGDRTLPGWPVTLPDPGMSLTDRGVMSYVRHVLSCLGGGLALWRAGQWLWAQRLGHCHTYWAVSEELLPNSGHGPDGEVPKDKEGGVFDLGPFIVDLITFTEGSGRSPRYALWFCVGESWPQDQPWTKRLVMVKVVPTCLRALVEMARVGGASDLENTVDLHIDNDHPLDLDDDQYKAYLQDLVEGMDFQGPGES
`GACGGACTGTACACTGGGGACGTGCTA`: “fitted relative affinity” -0.53 z-score.
`AGGAGAGATTAAGTAACTTAGTGCTAG`: “fitted relative affinity” -0.425 z-score.
For `CAAAAATGATTGGTTGAACAGTGCTAG`, “fitted relative affinity” read 0.259 z-score.
`GACGGACTGGGGTTTCGGGATGTGCTA`: “fitted relative affinity” 0.745 z-score.
`GACGATTTCGGGTTGCGAGACGTGCTA`: “fitted relative affinity” 1.89 z-score.
`GGTATTATTTATTGTAGCCTCGTGCTA`: “fitted relative affinity” 0.999 z-score.
`GACGGACTGGGGACTGGGAACGTGCTA`: “fitted relative affinity” -0.944 z-score.
`GACGTTCTCAGTTTCGAGACGTGCTAG` — result for “fitted relative affinity”: 2.94 z-score.

Series 3
Target: Sal-like protein 4, full length isoform B (SALL4, Homo sapiens, UniProt Q9UJQ4-2, residues 1-616)
Method: universal PBM
Form: double-stranded DNA, one strand shown
Matrix: in vitro
Concentration: not given
Notes: 8-mer, flanks averaged, mean of replicates
Reading: higher = stronger binding
The E-score of `ACGAGAGA` is reported as -0.00404.
For `CTTCTTGC`, the E-score was -0.0708.
`ACCTACGT` has an E-score of -0.0419.
For `TGAATCAA`, the E-score was 0.225.
The E-score of `CTTGAACA` is reported as 0.00126.
For `TATTACAA`, the E-score was 0.434.
`ACGTCGGC` has an E-score of -0.182.
`ATTAGGGC` gave an E-score of 0.0813.

Single results of other studies
Starting sequence: PafA, mature enzyme, eGFP fusion (Elizabethkingia meningoseptica, UniProt Q9KJX5); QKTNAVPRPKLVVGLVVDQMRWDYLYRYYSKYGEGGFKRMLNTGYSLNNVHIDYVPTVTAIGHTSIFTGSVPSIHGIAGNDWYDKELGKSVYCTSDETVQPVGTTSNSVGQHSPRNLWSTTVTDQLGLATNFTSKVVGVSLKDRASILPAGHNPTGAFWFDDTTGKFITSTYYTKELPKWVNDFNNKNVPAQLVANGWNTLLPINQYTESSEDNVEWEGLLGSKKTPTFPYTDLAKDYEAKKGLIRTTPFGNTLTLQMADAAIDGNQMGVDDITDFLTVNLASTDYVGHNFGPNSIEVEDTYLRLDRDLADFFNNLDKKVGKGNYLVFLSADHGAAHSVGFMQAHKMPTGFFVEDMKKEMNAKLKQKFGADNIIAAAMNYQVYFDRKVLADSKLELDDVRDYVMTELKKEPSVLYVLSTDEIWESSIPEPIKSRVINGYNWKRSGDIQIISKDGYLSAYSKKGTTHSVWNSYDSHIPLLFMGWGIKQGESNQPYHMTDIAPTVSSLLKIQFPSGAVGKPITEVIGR
Under “phosphate dissociation constant”, `S426V` is recorded as 599 µM (inorganic phosphate, free oxyanion; microfluidic competitive inhibition; in vitro, cell-free expressed; not given, derived from inhibition constants, unchanged parent 615000 nM; lower = stronger binding).

For quick reference, copied from above (series 2):
`GGTATTATTTATTGTAGCCTCGTGCTA`: “fitted relative affinity” 0.999 z-score.
`GACGGACTGGGGACTGGGAACGTGCTA`: “fitted relative affinity” -0.944 z-score.
`GACGTTCTCAGTTTCGAGACGTGCTAG` — result for “fitted relative affinity”: 2.94 z-score.
